Published values gathered from unrelated publications.
Each line is one published result; not all experiments were run side by side. Several values in a cell are separate wells, animals, samples, runs or records. Numbers after ± are the reported error. Converted amounts (≈) assume the structure as drawn.

Compound	organism	assay	test system	conditions	how to read	endpoint	result
Oc1ccc(C(F)(F)F)cc1-c1nc2c(Cl)cc(Cl)cc2[nH]1	Acinetobacter baumannii	colistin potentiator	AB 2A8, colistin-resistant	5 µM	–	colistin MIC	0.125 µg/mL
COc1ccc(-c2ccc3oc(-c4ccc(OC)cc4)c(C#CC4(O)CCCCC4)c3c2)cc1	hepatitis C virus	HCV replicon replication	HCV genotype 1b subgenomic replicon cells	10 µM	relative to: DMSO	remaining activity	109%
CCn1c(-c2ccc(OC)cc2)c(-c2ccc(OC)cc2)n(CC)c1=[Se+][Au-][P+](CC)(CC)CC.[Cl-]	Acinetobacter baumannii	bacterial growth, checkerboard microdilution	carbapenem-resistant	with: imipenem	–	FIC index	0.5
CC[C@H](C)[C@H](NC(=O)[C@@H]1CC(=O)N[C@@H](CO)C(=O)N[C@@H](CC(C)C)C(=O)NCC(=O)N[C@@H](CO)C(=O)N[C@@H](CO)C(=O)N2CCC[C@H]2C(=O)N[C@@H](Cc2ccc(O)cc2)C(=O)N[C@@H](CC(N)=O)C(=O)N1)C(=O)N[C@@H](CC(C)C)C(=O)NCC(=O)N[C@@H](Cc1ccc(O)cc1)C(=O)N1CCC[C@H]1C(=O)N[C@@H](C)C(=O)N[C@@H](CC(C)C)C(=O)N[C@H](C(=O)N[C@H](C(=O)N[C@H](C(=O)N[C@@H](Cc1ccc(O)cc1)C(=O)N1CCC[C@H]1C(=O)O)[C@@H](C)CC)C(C)C)[C@@H](C)CC	fungi	–	–	concentration not given	–	antifungal activity	inactive
CC[C@H](C)[C@H](NC(=O)[C@H](CCCCN)NC(=O)[C@H](CCCCN)NC(=O)[C@H](CC(C)C)NC(=O)[C@H](CCCCN)NC(=O)[C@H](CCC(=O)O)NC(=O)[C@H](CCCCN)NC(=O)[C@@H](NC(=O)[C@H](CCCCN)NC(=O)[C@H](CC(N)=O)NC(=O)[C@H](CCCNC(=N)N)NC(=O)[C@H](Cc1ccccc1)NC(=O)[C@H](CCCCN)NC(=O)[C@H](CCCNC(=N)N)NC(=O)[C@H](CC(C)C)NC(=O)[C@H](CCCNC(=N)N)NC(=O)[C@H](CCCCN)NC(=O)[C@H](CCCNC(=N)N)NC(=O)[C@H](CC(C)C)NC(=O)CN)[C@@H](C)CC)C(=O)NCC(=O)N[C@@H](CCC(N)=O)C(=O)N[C@@H](CCCCN)C(=O)N[C@H](C(=O)N[C@@H](CCC(N)=O)C(=O)NCC(=O)N[C@@H](Cc1ccccc1)C(=O)N[C@H](C(=O)N1CCC[C@H]1C(=O)N[C@@H](CCCCN)C(=O)N[C@@H](CC(C)C)C(=O)N[C@@H](C)C(=O)N1CCC[C@H]1C(=O)N[C@@H](CCCNC(=N)N)C(=O)N[C@H](C(=O)N[C@@H](CC(=O)O)C(=O)N[C@@H](Cc1ccc(O)cc1)C(=O)O)[C@@H](C)O)C(C)C)[C@@H](C)CC	Staphylococcus epidermidis	inhibition zone	penicillin-resistant P1389	–	–	lethal concentration	1 µM
[Cl-].[Cl-].[Mn+2].c1ccc(CN2CCCNCCN(Cc3ccccc3)CCCNCC2)cc1	Leishmania donovani	parasite growth, resazurin	–	72 h, promastigote	–	IC90	12.4 µM
COc1ccc(S(=O)(=O)NCc2c[nH]nc2-c2cccs2)cc1	Plasmodium falciparum	–	Dd2-B2	3216 nM, 60 d, 3× EC90	–	log10 minimum inoculum for resistance	8 and 8.01
[Cl-].[Cl-].[Mn+2].c1ccc(CN2CCNCCN(Cc3ccccc3)CCNCC2)cc1	Leishmania donovani	–	THP-1-derived macrophages, intracellular amastigotes	–	–	IC50	1.02 µM
CO.[Ag+].[S-]c1ncccn1.c1ccc(P(c2ccccc2)c2ccccc2)cc1.c1ccc(P(c2ccccc2)c2ccccc2)cc1	Staphylococcus epidermidis	–	MTCC 435	50 mg/mL, 18 to 24 h	–	inhibition zone diameter	inactive
CC(=O)Oc1ccc(Cn2ccc(=O)[nH]c2=O)cc1C1OC(c2cccc(Cl)c2)=NN1C(C)=O (centres unmarked)	varicella-zoster virus	plaque formation, plaque reduction	HEL fibroblasts, TK- strain 07-1	–	–	EC50	> 20 µM
CC(=O)[O-].F[P-](F)(F)(F)(F)F.[Cu+2].c1ccc(CN2CCN3CCN(CC2)CCN(Cc2ccccc2)CC3)cc1	Leishmania donovani	parasite growth, resazurin	–	72 h, promastigote	–	IC50	> 20 µM
CN[C@@H]1[C@H](O)[C@H](NC)[C@H]2O[C@]3(O)[C@H](O[C@@H]2[C@H]1O)O[C@H](C)C[C@@]3(O)CNCc1ccccc1	Neisseria meningitidis	–	ATCC 13077	40 µg per disc	–	inhibition zone diameter	16 to 21.5 mm
Nc1ccn(C[C@@H](CO)OCP(=O)(O)OCCCS(=O)(=O)CCCCCCCCCCCCCC2CCC2)c(=O)n1	human alphaherpesvirus 3	–	HFF, Ellen	–	relative to: CC50 over EC50	selectivity index	31
C=C(C)[C@@H]1CCC=C2CC[C@]3(C)[C@H](CC[C@@H]4[C@@]5(C)CCCNC(C)(C)[C@@H]5CC[C@]43C)[C@H]21	Human papillomavirus 11	viral replication	C-33 A	–	relative to: CC50 over EC50	selectivity index	< 4
N=C(N)NCCC[C@H](NC(=O)[C@H](CCCNC(=N)N)NC(=O)[C@H](CCCNC(=N)N)NC(=O)[C@H](CCC(N)=O)NC(=O)[C@H](CCCNC(=N)N)NC(=O)[C@H](CCCNC(=N)N)NC(=O)[C@H](CCCCN)NC(=O)[C@H](CCCCN)NC(=O)[C@H](CCCNC(=N)N)NC(=O)CNC(=O)[C@H](Cc1ccc(O)cc1)NC(=O)CNC(=O)CNC(=O)[C@@H]1CCCCNC(=O)CCC(=O)N[C@@H](CCCNC(=N)N)C(=O)N[C@@H](CC(N)=O)C(=O)NCC(=O)N[C@@H](CCC(N)=O)C(=O)N[C@@H](CS)C(=O)N[C@@H](CCC(N)=O)C(=O)N[C@@H](CCCNC(=N)N)C(=O)N[C@@H](CCCCN)C(=O)N1)C(N)=O	Leishmania donovani	Alamar blue	promastigote	100 µM, 48 h	relative to: control	viability	~5%
CC(CCC(=O)[O-])C1CCC2C3CCC4CC(O)CCC4(C)C3CC(O)C12C.C[N+](C)(C)CC(O)CC(=O)O (centres unmarked)	Staphylococcus epidermidis	–	TISTR 2172	1 mg per disc, 18 to 24 h, 37 °C, 6 mm disc	–	inhibition zone diameter	12.3 ± 0.3 mm
CCCCc1ccc(-c2nc(C)c(C(C)=NNC(=N)N)s2)cc1	Staphylococcus aureus	–	NRS194 MRSA	–	–	MBC	1.3 µg/mL (≈ 3.95 µM)
S=C(NCc1ccccn1)NCc1ccccn1	Agrobacterium tumefaciens	–	–	10 µg/mL	–	inhibition zone diameter	21 mm
COc1cc(-c2ccc3oc(-c4ccsc4)c(C#CC4(O)CCCCC4)c3c2)cc(OC)c1OC	hepatitis C virus	HCV replicon replication	HCV genotype 1b subgenomic replicon cells	10 µM	relative to: DMSO	remaining activity	103%
CC#N.[Cl][Mn-2]([Cl])([Cl])[Cl].[Mn+2].c1ccc(CN2CCCN3CCCN(CCCN(Cc4ccccc4)CC3)CC2)cc1	Leishmania donovani	parasite growth	THP-1 macrophages	intracellular amastigotes	–	IC90	2.17 µM
CN1CC(=O)N=C1N.C[C@H](CCC(=O)O)[C@H]1CC[C@H]2[C@@H]3[C@H](O)C[C@@H]4C[C@H](O)CC[C@]4(C)[C@H]3CC[C@]12C	Shigella flexneri	–	ATCC 9199	1 mg per disc, 18 to 24 h, 37 °C	–	antibacterial activity	inactive
C[N+]1=C2C(c3ccccc3)=[N+]([O-])c3ccccc3N2CCC1	Bacteroides fragilis	microbial growth	ATCC25285	–	–	MIC	4 µg/mL
CC(=O)[O-].CN(C)C=O.F[P-](F)(F)(F)(F)F.[Co+2].c1ccc(CN2CCN3CCCN(CC2)CCN(Cc2ccccc2)CC3)cc1	Leishmania donovani	parasite growth, resazurin	–	72 h, amastigote	–	IC90	> 10 µM
CC1(C)C(C=C(Cl)Cl)C1C(=O)OCc1c(F)ccc(F)c1F (centres unmarked)	Anopheles funestus	glazed tile contact bioassay	FANG susceptible	–	relative to: permethrin	potency relative to permethrin	≤ 25 fold
CC(=O)[O-].F[P-](F)(F)(F)(F)F.[Co+2].c1ccc(CN2CCCN3CCN(CCCN(Cc4ccccc4)CC3)CC2)cc1	Leishmania donovani	–	THP-1-derived macrophages, intracellular amastigotes	–	–	IC50	> 15 µM
CN(C)c1ccc(/C=C/C(=O)C(C(=O)c2ccccc2)=C2SCCCCS2)cc1	Mycolicibacterium smegmatis	microbial growth	–	24 h	–	MIC50	> 100 µM

Repeated from above:
Compound	organism	assay	test system	conditions	how to read	endpoint	result
COc1ccc(-c2ccc3oc(-c4ccc(OC)cc4)c(C#CC4(O)CCCCC4)c3c2)cc1	hepatitis C virus	HCV replicon replication	HCV genotype 1b subgenomic replicon cells	10 µM	relative to: DMSO	remaining activity	109%
CC(=O)[O-].F[P-](F)(F)(F)(F)F.[Co+2].c1ccc(CN2CCCN3CCN(CCCN(Cc4ccccc4)CC3)CC2)cc1	Leishmania donovani	–	THP-1-derived macrophages, intracellular amastigotes	–	–	IC50	> 15 µM
CN(C)c1ccc(/C=C/C(=O)C(C(=O)c2ccccc2)=C2SCCCCS2)cc1	Mycolicibacterium smegmatis	microbial growth	–	24 h	–	MIC50	> 100 µM
CO.[Ag+].[S-]c1ncccn1.c1ccc(P(c2ccccc2)c2ccccc2)cc1.c1ccc(P(c2ccccc2)c2ccccc2)cc1	Staphylococcus epidermidis	–	MTCC 435	50 mg/mL, 18 to 24 h	–	inhibition zone diameter	inactive
